# Experimental data collected from several papers.
# Protocols differ between the studies behind these lines. Numbers after ± are the reported error.
SMILES,assay,test system,conditions,scale,measurement,value
O[C@H]1CCCN[C@@H]1CCCn1cnc2c(Cl)c(Cl)ccc21,,"healthy human volunteers, plasma","oral, 200 mg twice daily, day 14, median",,Tmax at steady state,2 h
CC(C)C[C@H](NC(=O)CNC(=O)c1ccc2c(c1)C(=O)OC21c2ccc(O)cc2Oc2cc(O)ccc21)C(=O)N[C@@H](Cc1c[nH]c2ccccc12)C(=O)N[C@@H](CCCNC(=N)N)C(=O)N[C@@H](C)C(=O)N[C@@H](CC(C)C)C(=O)N[C@@H](Cc1c[nH]c2ccccc12)C(=O)N[C@@H](CCCNC(=N)N)C(=O)N[C@@H](CC(C)C)C(=O)N[C@@H](CC(C)C)C(=O)N[C@@H](CCCNC(=N)N)C(=O)N[C@@H](CO)C(=O)N[C@@H](CC(C)C)C(=O)N[C@@H](Cc1c[nH]c2ccccc12)C(=O)N[C@@H](CCCNC(=N)N)C(=O)N[C@@H](CC(C)C)C(=O)N[C@@H](CC(C)C)C(=O)N[C@@H](Cc1c[nH]c2ccccc12)C(=O)N[C@@H](CCCNC(=N)N)C(=O)N[C@@H](C)C(=O)O,no effect,"Sprague-Dawley rat, excised skin","50 µmol/L, 37 °C, FAM-labelled CPP conjugate",relative to: free FAM,apparent skin permeability,no effect
CN(C)CCCC1(c2ccc(F)cc2)OCc2cc(C#N)ccc21 (stereo not drawn),"N-demethylation, substrate",Beagle dog liver microsomes,"1 h, pH 7.4, low-affinity component",,Km,≥ 848 µM
CCCCCOc1ccc(-c2ccc(-c3ccc(C(=O)N[C@H]4C[C@@H](O)[C@@H](O)NC(=O)[C@@H]5[C@@H](O)[C@@H](C)CN5C(=O)[C@H]([C@@H](C)O)NC(=O)[C@H]([C@H](O)[C@@H](O)c5ccc(O)cc5)NC(=O)[C@@H]5C[C@@H](O)CN5C(=O)[C@H]([C@@H](C)O)NC4=O)cc3)cc2)cc1,,"human patients aged 5 to sample A years, plasma","iv, loading 3.0 mg/kg then 1.5 mg/kg daily, steady state, median",,"Cmin,ss",2340 ng/mL
COc1ccc(C[C@@H]2NC(=O)[C@H]([C@@H](C)O)NC(=O)[C@@H]3[C@@H]4CCN3C(=O)[C@@H]3Cc5cn(c6ccc(F)cc56)CCCCCCN(Cc5ccc(cc5)CCNC(=O)[C@]5(C)CCCN5C2=O)C(=O)CCC(=O)N[C@@H](C)C(=O)N[C@H](CNC(=O)CCCCC[N+](C)(C)C)C(=O)N[C@@H](Cc2cccc(c2)CNC(=O)CO4)C(=O)N3)cc1,,"fasted healthy men, plasma","oral, 35 mg single dose, 24 h, with 1800 mg Labrasol, median",,plasma concentration,6.98 nM
CCCCCCCC[N+](C)(C)Cc1ccccc1,ultrafiltration,human serum,,,unbound fraction in blood,0.231
CC(C)[C@H](NC(=O)[C@H](Cc1c[nH]c2ccccc12)NC(=O)[C@H](CCCCN)NC(=O)CNC(=O)[C@@H](NC(=O)[C@H](C)NC(=O)[C@@H]1CCCN1C(=O)[C@H](CC(N)=O)NC(=O)[C@H](Cc1c[nH]c2ccccc12)NC(=O)[C@@H](NC(=O)[C@H](Cc1c[nH]c2ccccc12)NC(=O)[C@@H](N)CCCNC(=N)N)C(C)C)[C@@H](C)O)C(=O)N[C@@H](Cc1c[nH]c2ccccc12)C(=O)N[C@@H](CCC(=O)O)C(=O)O,circular dichroism,phosphate buffer,pH 6.5,,Tm,97.9 ± 0.1 °C
c1cc([C@H]2CC[C@]3(CC2)OO[C@]2(O3)C3CC4CC(C3)CC2C4)ccc1OCCN1CCOCC1,,"human, plasma","oral, 800 mg, single dose, fed",,AUC(0-inf),23900 ng·h/mL
N[C@@H](Cc1ccc(F)cc1)C(=O)O,in situ brain perfusion,"CF-1 mice, mdr1a(-/-)","1 µM, 60-180 s",,brain uptake clearance Kin,142 mL/100 g/min
CN[C@@](C)(C[18F])C(=O)O,,"SCID mouse U87 xenograft, brain","15 min, post injection",,tissue uptake,0.6 ± 0.2 %ID/g
[123I]c1cncc(OC[C@@H]2CCN2)c1,SPECT,"human, frontal lobe","intravenous bolus plus infusion, 7.8 mCi",relative to: tissue over plasma,tissue/plasma ratio,16.2
CC[C@H](C)[C@H](NC(=O)[C@H](Cc1c[nH]c2ccccc12)NC(=O)[C@@H]1CSSC[C@H](NC(=O)[C@H](CCC(=O)O)NC(=O)[C@H](Cc2c[nH]c3ccccc23)NC(=O)[C@H](CCC(N)=O)NC(=O)COCCOCCNC(=O)[C@H](CCC(=O)O)NC(=O)[C@H](Cc2c[nH]cn2)NC(=O)[C@@H](N)Cc2c[nH]cn2)C(=O)N2CCC[C@H]2C(=O)N[C@@H](Cc2ccc(O)cc2)C(=O)NCC(=O)N[C@@H](CC(C)C)C(=O)N1)C(=O)N[C@@H](CCC(N)=O)C(=O)O [technetium-99m labelled],,"male C57BL/6 mouse, blood",intravenous,,elimination half-life,2.9 ± 0.437 h
c1cc2ccc3cccc4ccc(c1)c2c34,HPLC-fluorescence,"Wistar rat, male, heart","oral, 4 mg/kg, 24 h",,tissue concentration,16.8 ± 1.8 ng/g
O=c1[nH]c(Cc2ccccn2)nc2c1cnn2C1CCOCC1,,"healthy men, extensive metabolizers, plasma","oral, 25 mg single dose, tablet, geometric mean",,Cmax,300 nM
CC(=O)N[C@H](CCCCN)C(=O)N[C@H](CC(C)C)C(=O)N[C@@H](CN)C(=O)N[C@H](CO)C(=O)N[C@H](CC(C)C)C(=O)N[C@H](CC(C)C)C(=O)N[C@@H](CN)C(=O)N[C@@H](C(=O)N[C@H](CC(C)C)C(=O)N[C@H](CO)C(=O)N[C@@H](CN)C(=O)N[C@H](C)C(=O)N[C@H](C)C(=O)N[C@H](C)C(=O)N[C@H](C)C(=O)N[C@H](C)C(=O)N[C@H](CC(C)C)C(=O)N[C@@H](CN)C(=O)N[C@@H](C(=O)N[C@H](CC(C)C)C(=O)N[C@H](CC(C)C)C(=O)N[C@@H](CN)C(=O)N[C@H](C)C(=O)N[C@H](CC(C)C)C(=O)N[C@H](CO)C(=O)N[C@@H](CN)C(N)=O)[C@H](C)O)[C@H](C)O,,human erythrocytes,"18 h, pH 7.4, 37 °C, 50% hemolysis",,HC50,7.2 µg/mL
CC[C@H](C)[C@H](NC(=O)[C@H](CC(C)C)NC(=O)[C@H](Cc1c[nH]c2ccccc12)NC(=O)[C@H](CCC(N)=O)NC(=O)[C@@H](NC(=O)[C@H](Cc1ccccc1)NC(=O)[C@H](C)NC(=O)[C@H](CCCCNC(=O)COCCOCCNC(=O)COCCOCCNC(=O)CC[C@H](NC(=O)CCCCCCCCCCCCCCCCCCC(=O)O)C(=O)O)NC(=O)[C@H](CCC(N)=O)NC(=O)[C@H](C)NC(=O)[C@@H](NC(=O)[C@H](CCCCN)NC(=O)[C@H](CC(=O)O)NC(=O)[C@H](CC(C)C)NC(=O)C(C)(C)NC(=O)[C@@H](NC(=O)[C@H](CO)NC(=O)[C@H](Cc1ccc(O)cc1)NC(=O)[C@H](CC(=O)O)NC(=O)[C@H](CO)NC(=O)[C@@H](NC(=O)[C@H](Cc1ccccc1)NC(=O)[C@@H](NC(=O)CNC(=O)[C@H](CCC(=O)O)NC(=O)C(C)(C)NC(=O)[C@@H](N)Cc1ccc(O)cc1)[C@@H](C)O)[C@@H](C)O)[C@@H](C)CC)[C@@H](C)CC)C(C)C)C(=O)N[C@@H](C)C(=O)NCC(=O)NCC(=O)N1CCC[C@H]1C(=O)N[C@@H](CO)C(=O)N[C@@H](CO)C(=O)NCC(=O)N[C@@H](C)C(=O)N1CCC[C@H]1C(=O)N1CCC[C@H]1C(=O)N1CCC[C@H]1C(=O)N[C@@H](CO)C(N)=O,,"human, mild hepatic impairment, plasma","subcutaneous, 5 mg",,AUC(0-inf),94300 ng·h/mL
CCCCCOc1ccc(-c2cc(-c3ccc(C(=O)N[C@H]4C[C@@H](O)[C@@H](O)NC(=O)[C@@H]5[C@@H](O)[C@@H](C)CN5C(=O)[C@H]([C@H](O)CC(N)=O)NC(=O)[C@H]([C@H](O)[C@@H](O)c5ccc(O)c(OS(=O)(=O)O)c5)NC(=O)[C@@H]5C[C@@H](O)CN5C(=O)[C@H]([C@@H](C)O)NC4=O)cc3)no2)cc1,,"human children aged 6-11 years, plasma","intravenous, 4.5 mg/kg once daily, day 7, mean",,clearance at steady state,0.273 mL/min/kg
CCNc1nc(Cl)nc(NCC)n1,LC-MS/MS,herbicide solution,"2 h, 40 °C, with: 365 nm UV exposure",,remaining amount,86.2 ± 16.8%
CC(=O)N[C@H](CCCCNC(=O)C(C)F)C(=O)N[C@@H](CS)C(=O)N[C@@H](CS)C(=O)N[C@@H](CCC(=O)O)C(=O)N[C@@H](Cc1c[nH]cn1)C(=O)N[C@H](Cc1ccccc1)C(=O)N[C@@H](CCCNC(=N)N)C(=O)N[C@@H](Cc1c[nH]c2ccccc12)C(=O)N[C@@H](CS)C(=O)N[C@@H](CCCNC(=N)N)C(=O)N1CCC[C@H]1C(=O)N[C@H](C(N)=O)C(C)C (stereo partly drawn) [fluorine-18 labelled],,"nude mice, A375M xenograft, stomach","intravenous, 2 h",,tissue uptake,0.44 ± 0.02 %ID/g
CO[C@H]1C[C@@H]2CC[C@@H](C)[C@@](O)(O2)C(=O)C(=O)N2CCCC[C@H]2C(=O)O[C@H]([C@H](C)C[C@@H]2CC[C@@H](OCCO)[C@H](OC)C2)CC(=O)[C@H](C)/C=C(\C)[C@@H](O)[C@@H](OC)C(=O)[C@H](C)C[C@H](C)/C=C/C=C/C=C/1C,LC-MS/MS,"human patients, whole blood","oral, 5 mg once daily (MTD), with: paclitaxel",,Cmin,7.28 ng/mL
O=C1Cc2cc(CCN3CCN(c4nsc5ccccc45)CC3)c(Cl)cc2N1,,human liver mitochondrial preparation,"1 µM, 30 min, 0.5 mg/mL protein",,percent metabolized,0%
O=C1CC(c2ccc(O)cc2)Oc2cc(O)cc(O)c21 (stereo not drawn),,Wistar rat,"oral gavage, 28 days, dose range-finding toxicity study",,"no-effect dose, highest tested",≤ 4000 mg/kg/day
Cc1c(P(=S)(c2ccccc2)c2ccccc2)n2ccccc2[n+]1C/C=C/c1ccccc1,,"mouse, brain","intraperitoneal, 10 mg/kg, 15 min",,concentration,24 ng/g
CC(C)C[C@H](NC(=O)[C@H](Cc1ccccc1)NC(=O)CNC(=O)[C@H](NC(=O)[C@@H](N)Cc1ccc(O)cc1)[C@H](C)O)C(=O)N[C@@H](CO[C@@H]1O[C@H](CO)[C@@H](O[C@@H]2O[C@H](CO)[C@H](O)[C@H](O)[C@H]2O)[C@H](O)[C@H]1O)C(N)=O,,"rat, dorsolateral striatum dialysate","ip, 10 mg/kg, 80 min",,dialysate level relative to leu-enkephalin,~10 fold

# Repeated from above:
SMILES,assay,test system,conditions,scale,measurement,value
CC[C@H](C)[C@H](NC(=O)[C@H](Cc1c[nH]c2ccccc12)NC(=O)[C@@H]1CSSC[C@H](NC(=O)[C@H](CCC(=O)O)NC(=O)[C@H](Cc2c[nH]c3ccccc23)NC(=O)[C@H](CCC(N)=O)NC(=O)COCCOCCNC(=O)[C@H](CCC(=O)O)NC(=O)[C@H](Cc2c[nH]cn2)NC(=O)[C@@H](N)Cc2c[nH]cn2)C(=O)N2CCC[C@H]2C(=O)N[C@@H](Cc2ccc(O)cc2)C(=O)NCC(=O)N[C@@H](CC(C)C)C(=O)N1)C(=O)N[C@@H](CCC(N)=O)C(=O)O [technetium-99m labelled],,"male C57BL/6 mouse, blood",intravenous,,elimination half-life,2.9 ± 0.437 h
c1cc2ccc3cccc4ccc(c1)c2c34,HPLC-fluorescence,"Wistar rat, male, heart","oral, 4 mg/kg, 24 h",,tissue concentration,16.8 ± 1.8 ng/g
O=c1[nH]c(Cc2ccccn2)nc2c1cnn2C1CCOCC1,,"healthy men, extensive metabolizers, plasma","oral, 25 mg single dose, tablet, geometric mean",,Cmax,300 nM
CC(=O)N[C@H](CCCCN)C(=O)N[C@H](CC(C)C)C(=O)N[C@@H](CN)C(=O)N[C@H](CO)C(=O)N[C@H](CC(C)C)C(=O)N[C@H](CC(C)C)C(=O)N[C@@H](CN)C(=O)N[C@@H](C(=O)N[C@H](CC(C)C)C(=O)N[C@H](CO)C(=O)N[C@@H](CN)C(=O)N[C@H](C)C(=O)N[C@H](C)C(=O)N[C@H](C)C(=O)N[C@H](C)C(=O)N[C@H](C)C(=O)N[C@H](CC(C)C)C(=O)N[C@@H](CN)C(=O)N[C@@H](C(=O)N[C@H](CC(C)C)C(=O)N[C@H](CC(C)C)C(=O)N[C@@H](CN)C(=O)N[C@H](C)C(=O)N[C@H](CC(C)C)C(=O)N[C@H](CO)C(=O)N[C@@H](CN)C(N)=O)[C@H](C)O)[C@H](C)O,,human erythrocytes,"18 h, pH 7.4, 37 °C, 50% hemolysis",,HC50,7.2 µg/mL
